Measured values gathered from unrelated publications.
Numbered parts are unrelated; each lists some results of a single study.
Sequence of UniProt P29323 (whole entry, looked up): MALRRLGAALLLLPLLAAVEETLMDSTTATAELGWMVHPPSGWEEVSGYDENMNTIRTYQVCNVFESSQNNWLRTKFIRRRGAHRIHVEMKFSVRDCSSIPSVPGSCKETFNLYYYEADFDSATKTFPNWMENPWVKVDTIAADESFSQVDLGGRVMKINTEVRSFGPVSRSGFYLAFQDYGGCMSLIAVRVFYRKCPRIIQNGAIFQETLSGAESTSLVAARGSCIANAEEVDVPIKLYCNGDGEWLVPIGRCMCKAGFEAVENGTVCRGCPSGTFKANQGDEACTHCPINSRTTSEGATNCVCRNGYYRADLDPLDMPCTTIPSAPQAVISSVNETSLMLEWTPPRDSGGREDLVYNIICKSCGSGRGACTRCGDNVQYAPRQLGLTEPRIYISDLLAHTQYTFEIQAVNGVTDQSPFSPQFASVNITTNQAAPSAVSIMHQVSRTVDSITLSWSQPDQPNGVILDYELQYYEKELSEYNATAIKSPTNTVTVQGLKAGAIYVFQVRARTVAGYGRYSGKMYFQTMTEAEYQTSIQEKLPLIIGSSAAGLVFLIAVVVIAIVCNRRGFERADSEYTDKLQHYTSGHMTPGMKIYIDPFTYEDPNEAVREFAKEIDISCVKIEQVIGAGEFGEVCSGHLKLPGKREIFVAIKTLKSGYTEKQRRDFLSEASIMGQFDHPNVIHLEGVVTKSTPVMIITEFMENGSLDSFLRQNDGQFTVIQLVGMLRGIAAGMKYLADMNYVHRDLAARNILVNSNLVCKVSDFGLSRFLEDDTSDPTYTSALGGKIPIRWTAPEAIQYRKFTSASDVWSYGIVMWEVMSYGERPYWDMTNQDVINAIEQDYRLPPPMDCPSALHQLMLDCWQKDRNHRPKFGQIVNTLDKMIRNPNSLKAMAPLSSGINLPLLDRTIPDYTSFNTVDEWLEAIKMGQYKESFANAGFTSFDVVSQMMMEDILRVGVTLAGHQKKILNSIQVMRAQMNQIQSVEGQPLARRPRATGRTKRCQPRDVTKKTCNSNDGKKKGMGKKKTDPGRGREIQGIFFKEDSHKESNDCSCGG
Sequence of UniProt P10398 (whole entry, looked up): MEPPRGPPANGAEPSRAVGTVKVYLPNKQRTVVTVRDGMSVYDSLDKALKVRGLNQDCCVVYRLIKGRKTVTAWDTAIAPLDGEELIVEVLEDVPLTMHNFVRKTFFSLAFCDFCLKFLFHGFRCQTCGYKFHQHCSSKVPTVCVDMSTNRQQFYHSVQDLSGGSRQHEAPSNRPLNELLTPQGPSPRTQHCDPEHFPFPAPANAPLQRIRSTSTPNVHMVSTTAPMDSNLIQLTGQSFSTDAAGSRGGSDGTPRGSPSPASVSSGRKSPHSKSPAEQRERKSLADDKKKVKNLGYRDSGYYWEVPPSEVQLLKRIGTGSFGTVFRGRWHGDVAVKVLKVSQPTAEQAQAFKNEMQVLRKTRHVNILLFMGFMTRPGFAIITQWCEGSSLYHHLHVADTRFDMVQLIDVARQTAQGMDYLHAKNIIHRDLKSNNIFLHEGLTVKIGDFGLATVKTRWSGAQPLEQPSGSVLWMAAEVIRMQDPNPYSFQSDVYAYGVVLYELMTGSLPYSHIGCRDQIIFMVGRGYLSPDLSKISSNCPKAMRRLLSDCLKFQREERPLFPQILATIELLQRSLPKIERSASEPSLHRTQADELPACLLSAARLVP
Sequence of UniProt P41240 (whole entry, looked up): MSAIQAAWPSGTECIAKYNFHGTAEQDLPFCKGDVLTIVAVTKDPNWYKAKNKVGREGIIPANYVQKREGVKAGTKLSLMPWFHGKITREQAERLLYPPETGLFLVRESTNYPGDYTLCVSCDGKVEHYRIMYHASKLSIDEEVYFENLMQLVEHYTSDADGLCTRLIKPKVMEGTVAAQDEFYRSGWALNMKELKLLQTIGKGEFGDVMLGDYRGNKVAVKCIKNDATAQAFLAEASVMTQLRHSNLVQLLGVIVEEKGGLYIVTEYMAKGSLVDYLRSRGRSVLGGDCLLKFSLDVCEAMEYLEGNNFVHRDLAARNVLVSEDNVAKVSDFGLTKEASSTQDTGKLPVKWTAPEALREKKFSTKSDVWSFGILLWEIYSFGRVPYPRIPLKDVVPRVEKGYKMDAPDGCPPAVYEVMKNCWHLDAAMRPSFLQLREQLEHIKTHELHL
Sequence of UniProt Q9Y572 (whole entry, looked up): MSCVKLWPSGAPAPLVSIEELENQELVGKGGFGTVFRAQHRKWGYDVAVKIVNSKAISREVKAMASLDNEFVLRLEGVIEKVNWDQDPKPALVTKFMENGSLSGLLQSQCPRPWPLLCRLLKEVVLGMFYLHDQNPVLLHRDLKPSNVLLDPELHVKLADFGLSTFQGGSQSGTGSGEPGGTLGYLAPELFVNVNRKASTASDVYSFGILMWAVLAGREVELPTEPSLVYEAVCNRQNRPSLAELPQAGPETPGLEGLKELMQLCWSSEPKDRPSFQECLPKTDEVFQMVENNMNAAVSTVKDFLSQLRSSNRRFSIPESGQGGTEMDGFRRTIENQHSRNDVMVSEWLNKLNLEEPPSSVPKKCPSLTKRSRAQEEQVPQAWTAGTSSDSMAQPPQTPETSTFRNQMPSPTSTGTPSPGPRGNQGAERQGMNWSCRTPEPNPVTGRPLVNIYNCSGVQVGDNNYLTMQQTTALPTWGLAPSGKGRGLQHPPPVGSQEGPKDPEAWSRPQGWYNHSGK
Sequence of UniProt Q02156 (whole entry, looked up): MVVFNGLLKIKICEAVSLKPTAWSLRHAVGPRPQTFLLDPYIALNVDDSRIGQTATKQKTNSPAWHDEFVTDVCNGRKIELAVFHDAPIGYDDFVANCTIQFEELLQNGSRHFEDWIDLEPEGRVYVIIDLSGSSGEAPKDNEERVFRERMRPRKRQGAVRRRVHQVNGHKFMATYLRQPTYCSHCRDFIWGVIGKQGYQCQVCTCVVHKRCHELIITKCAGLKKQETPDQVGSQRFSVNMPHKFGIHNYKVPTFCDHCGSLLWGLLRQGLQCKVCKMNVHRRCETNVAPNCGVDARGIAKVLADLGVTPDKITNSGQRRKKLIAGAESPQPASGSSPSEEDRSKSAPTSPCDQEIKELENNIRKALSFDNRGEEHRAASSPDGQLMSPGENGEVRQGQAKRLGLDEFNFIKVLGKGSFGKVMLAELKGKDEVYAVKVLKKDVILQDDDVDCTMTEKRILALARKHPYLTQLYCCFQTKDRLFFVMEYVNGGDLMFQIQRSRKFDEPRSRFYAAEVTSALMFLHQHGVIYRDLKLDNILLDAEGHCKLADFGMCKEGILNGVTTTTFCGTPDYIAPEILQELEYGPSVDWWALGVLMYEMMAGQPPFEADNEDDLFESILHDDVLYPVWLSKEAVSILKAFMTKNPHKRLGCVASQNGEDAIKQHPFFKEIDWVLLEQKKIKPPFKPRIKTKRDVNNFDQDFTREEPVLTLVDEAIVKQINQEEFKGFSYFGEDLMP
Sequence of UniProt P68400 (whole entry, looked up): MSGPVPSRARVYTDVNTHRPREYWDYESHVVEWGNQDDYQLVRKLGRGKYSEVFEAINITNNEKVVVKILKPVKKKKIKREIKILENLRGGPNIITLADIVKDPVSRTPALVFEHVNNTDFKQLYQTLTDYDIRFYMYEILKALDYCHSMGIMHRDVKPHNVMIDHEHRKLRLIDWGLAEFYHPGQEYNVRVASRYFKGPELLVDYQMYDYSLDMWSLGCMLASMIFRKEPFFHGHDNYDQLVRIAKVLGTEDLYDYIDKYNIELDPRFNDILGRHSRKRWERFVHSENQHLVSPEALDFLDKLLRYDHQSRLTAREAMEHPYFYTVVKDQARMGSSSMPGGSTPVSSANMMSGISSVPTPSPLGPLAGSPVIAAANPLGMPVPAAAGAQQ

Block 1
Target: Beta-1 adrenergic receptor (ADRB1, Homo sapiens, UniProt P08588)
Sequence of UniProt P08588 (whole entry, looked up): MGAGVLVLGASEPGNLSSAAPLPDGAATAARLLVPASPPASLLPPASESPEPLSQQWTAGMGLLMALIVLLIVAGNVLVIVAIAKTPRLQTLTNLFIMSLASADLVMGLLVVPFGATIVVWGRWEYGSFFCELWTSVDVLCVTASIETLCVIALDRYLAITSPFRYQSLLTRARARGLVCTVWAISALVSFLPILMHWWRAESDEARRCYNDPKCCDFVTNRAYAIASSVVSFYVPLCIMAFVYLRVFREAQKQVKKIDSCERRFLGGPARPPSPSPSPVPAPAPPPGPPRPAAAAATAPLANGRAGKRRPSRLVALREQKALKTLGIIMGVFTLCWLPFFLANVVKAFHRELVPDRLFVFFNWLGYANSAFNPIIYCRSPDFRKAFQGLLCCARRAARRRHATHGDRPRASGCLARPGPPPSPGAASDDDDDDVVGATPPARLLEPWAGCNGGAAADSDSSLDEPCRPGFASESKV
Action: antagonist
Endpoint: IC50
COc1ccc(OCC(O)CN2CCC(O)CC2)c(CNCC2(O)CCCCC2)c1 (centres unmarked): ≥ 100 µM
Cn1nnnc1SCCCNCc1ccccc1OCc1ccccc1Cl: ≥ 100 µM
N#Cc1cc2c(nc1N1CCC(COc3cccc(C(F)(F)F)n3)CC1)CCOC2: ≥ 100 µM
c1ccc(-c2nc(NCc3cc4n(n3)CCCNC4)c3ccccc3n2)cc1: ≥ 100 µM
Cc1cc(-c2nccc3c(=O)cc(N(C)c4ccccc4)oc23)ccn1: ≥ 100 µM
O=C(Nc1cccc(-n2cnnn2)c1)c1cc2c(F)cccc2s1: ≥ 100 µM
CCn1c(=O)cc(N2CCN(c3cccc(Cl)c3)CC2)[nH]c1=O: ≥ 100 µM
Cc1cccc(OCc2cc(=O)n3cccc(C)c3n2)c1C: ≥ 100 µM
COc1ccccc1N1CCN(C(=O)c2ccc(F)cc2)CC1: ≥ 100 µM

Block 2
Compound: O=C(Nc1cnn(-c2csc(C(=O)NC3COC3)c2)c1)Nc1c(F)cccc1Cl
Read-out: enzyme activity
Tested at: 5 µM
Endpoint: remaining activity
Casein kinase II subunit alpha (CSNK2A1, Homo sapiens, UniProt P68400); baseline: untreated control: 87.5%
Serine/threonine-protein kinase A-Raf (ARAF, Homo sapiens, UniProt P10398); baseline: untreated control: 92.6%
Microtubule-associated serine/threonine-protein kinase 3 (MAST3, Homo sapiens, UniProt O60307); baseline: untreated control: 104%
Protein kinase C epsilon type (PRKCE, Homo sapiens, UniProt Q02156); baseline: untreated control: 92.5%
Ephrin type-B receptor 2 (EPHB2, Homo sapiens, UniProt P29323); baseline: untreated control: 98.3%
Tyrosine-protein kinase ABL1 (ABL1, Homo sapiens, UniProt P00519); baseline: untreated control: 99.6%
Tyrosine-protein kinase CSK (CSK, Homo sapiens, UniProt P41240); baseline: untreated control: 96.5%
Receptor-interacting serine/threonine-protein kinase 3 (RIPK3, Homo sapiens, UniProt Q9Y572); inhibitor: 97.5%

Block 3
Host: human
Matrix: microsomes or S9
Tested at: 2 µM
Time: 0.5 h
Endpoint: remaining compound
Cc1ccc(Cl)cc1N1CCN(C(=O)C2CCCN(S(=O)(=O)c3ccccc3)C2)CC1 (centres unmarked): 29.9%
Cc1ccc(S(=O)(=O)C(C#N)c2nc3ccccc3nc2N2CC(C)OC(C)C2)cc1C (centres unmarked): 5.14%
Cn1nc(CNC(=O)C2CC(=O)N(C3CCCCC3)C2)c2c1CCN(S(C)(=O)=O)C2 (centres unmarked): 64.3%
CCc1ccc(S(=O)(=O)NCc2cccc(CS(C)(=O)=O)c2)s1: 17.4%
CN(C(=O)CN1N=C(c2ccccc2)Cn2c(cc3ccccc32)C1=O)C1CCCCC1: 1.65%
COCC(C)(O)CNS(=O)(=O)c1ccc(N2CCCCS2(=O)=O)cc1 (centres unmarked): > 100%
COC(=O)c1ccc(Oc2c(C)nn(C(=O)c3ccc(Cl)nc3)c2C)cc1: 98%

Block 4
Organism: Sarcocystis neurona
Read-out: parasite growth
Tested at: concentration not given
Notes: second screen
Baseline: untreated
Endpoint: log2 fold change
Cl.c1ccc2c(c1)CCCC2C1=NCCN1 (centres unmarked): 0.31
CC(N/C(=N\C#N)Nc1ccncc1)C(C)(C)C.O (centres unmarked): 0.15
COc1cc(OC)c(C(=O)CCCN2CCCC2)c(OC)c1.Cl: 0.51
CC[C@@H]1C(=O)OC[C@@H]1Cc1cncn1C.Cl: 0.23
CN(Cc1cnc2nc(N)nc(N)c2n1)c1ccc(C(=O)N[C@@H](CCC(=O)O)C(=O)O)cc1.O: 0.35
C[C@H](N[C@@H](CCc1ccccc1)C(=O)O)C(=O)N1CCC[C@H]1C(=O)O: 0.09
CC(CCCCC(=O)Nc1ccc(C(F)(F)F)cc1)NCCc1cnc[nH]1 (centres unmarked): 0.11

Block 5
Target: D(4) dopamine receptor (DRD4, Homo sapiens, UniProt P21917)
Sequence of UniProt P21917 (whole entry, looked up): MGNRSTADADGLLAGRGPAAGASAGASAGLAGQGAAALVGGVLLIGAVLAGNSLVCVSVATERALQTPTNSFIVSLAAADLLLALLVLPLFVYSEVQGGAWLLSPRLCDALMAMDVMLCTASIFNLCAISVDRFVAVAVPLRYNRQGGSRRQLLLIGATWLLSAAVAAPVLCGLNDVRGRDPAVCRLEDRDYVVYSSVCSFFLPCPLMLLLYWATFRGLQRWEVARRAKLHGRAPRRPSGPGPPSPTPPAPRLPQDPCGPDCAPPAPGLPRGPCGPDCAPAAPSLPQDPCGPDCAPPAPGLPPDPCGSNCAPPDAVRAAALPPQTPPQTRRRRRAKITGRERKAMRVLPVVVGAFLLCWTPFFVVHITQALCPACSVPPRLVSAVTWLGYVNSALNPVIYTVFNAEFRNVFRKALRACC
Read-out: ligand displacement
Tested at: 10 µM
Endpoint: inhibition
Cc1ccccc1Oc1cc(-n2c(=O)cc(C(F)(F)F)[nH]c2=O)c2ccccc2c1Cl: 9.05%
COc1cc(C(=O)O)ncc1C#Cc1ccccc1NS(=O)(=O)c1cccc2c(N(C)C)ccnc12: 4.65%
O=S(=O)(NC1CCC(c2cc(F)ccc2F)(S(=O)(=O)c2ccc(Cl)cc2)CC1)C(F)(F)F (centres unmarked): 20.1%
CCC(=NO)C(C)=Cc1ccc(F)c(C)c1: 18.6%
CNC(=O)Nc1ccc2c(c1)CC[C@]21OC(=O)N(CC(=O)N(Cc2ccc(F)cc2)[C@@H](C)C(F)(F)F)C1=O: 7.26%
C[C@H](c1ccc(F)cc1)N(Cc1cccc(C(=O)O)c1)C(=O)c1cnc2ccccc2c1: 10.1%
Cn1nc(C(=O)NCc2ccc(C(=O)O)cc2)cc1-c1ccc2[nH]ccc2c1: -8.91%
c1ccc(C2CCN(c3cnc4c(N5CCOCC5)nccn34)CC2)cc1: 0.44%
COc1cc(-c2cn(C3CCc4c(F)cccc4N(CC(F)(F)F)C3=O)nn2)ccc1-n1cnc(C)c1 (centres unmarked): -7.76%
COc1cccc(NC(=O)c2nc3scc(CN(C)Cc4ccccc4)c3c(=O)[nH]2)c1: 14.4%
CN(C)c1ncnc(-c2ccc3nc(Nc4cc(CN5CCN(C(=O)CC(F)(F)F)CC5)ccn4)[nH]c3c2)c1Cl: 7.18%
O=C(Nc1ccc(Oc2ccc(F)cc2)cc1)N1CCc2ncccc2[C@H]1c1ccc(F)cc1: 0.29%
CN1CCN(c2ccnc(NCCc3ccccc3)n2)CC1: 13%
Cn1cc(Cl)c2c(Oc3c(F)cc(Nc4cc(Cl)nc(N)n4)cc3F)ccnc21: 11.3%
O=C(NCCCC1CCCCC1)c1ccc(CNC(=O)c2cnn(-c3ccccc3)c2C(F)(F)F)cc1: 21.7%
CN([C@@H]1CCc2c(CC(=O)O)c3ccccc3n2C1)S(=O)(=O)c1ccc(F)cc1: 3.14%
CCOc1ccc(S(=O)(=O)Nc2ccc(Cl)cc2C#Cc2cnc(C(=O)O)cc2OC)c2ncccc12: 4.2%
CO[C@H]1CC[C@H](CNc2ccc(S(=O)(=O)NC(=O)c3ccc(N4CCN(CC5=C(c6ccc(Cl)cc6)CC(C)(C)CC5)CC4)cc3Oc3cnc4[nH]ccc4c3)cc2[N+](=O)[O-])CC1: -4.72%
O=C1NC(c2ccccn2)Sc2ccccc21 (centres unmarked): 7.31%
CCC(F)(F)c1cc(N2CCC(S(C)(=O)=O)CC2)nc2sc(C(N)=O)c(N)c12: 44.6%
NC(=O)c1ccc2nc(-c3ccc(C4(N)CCC4)cc3)c(-c3ccccc3)n2n1: 7.35%
Cc1cc(Nc2nccc(C)n2)cc(-c2cnc([C@@]3(O)CC[C@H](C(=O)O)C(C)(C)C3)s2)c1: -6.05%
CC(=O)Nc1ncc(CN2CCC[C@H](Cc3cc(C)nc(C)c3)C2)s1: 3.53%
Cc1c(NC(=O)c2cc(C(N)=O)nc3cc(F)ccc23)c(C(F)(F)F)nn1Cc1ccc(C#N)cc1: 15.1%
Cc1ccc(-c2cnc([C@@]3(O)CC[C@H](C(=O)O)C(C)(C)C3)s2)cc1Nc1cccc(C(F)(F)F)n1: -9.54%
